Assay results pooled from the literature.
Parts stem from different laboratories: compare values within a part only.

Study 1
Target: Prothrombin, mature alpha-thrombin (F2, Homo sapiens, UniProt P00734)
Technique: aptamer microarray, sandwich
Molecule type: DNA with 2'F-ANA
Sample: in vitro
Tested at: 200 nM
Setting: whole 15-mer aptamer, many near background
Added: Cy3 exosite-II aptamer, 400 nM
Reading: higher = stronger binding
Measurement: mean fluorescence intensity
Sequence: GGTTGGTGTGGTTGG
2'F-ANA at 3 11 12 14 15: 636 a.u.
2'F-ANA at 1 3 4 10 12 13 14: 52.3 a.u.
2'F-ANA at 1 2 3 4 5 8 14: 61 a.u.
2'F-ANA at 3 5 8 10 14 15: 57 a.u.
2'F-ANA at 1 2 4 7 9 10 12 15: 57.5 a.u.
2'F-ANA at 1 2 7 8 9 11 12 15: 302 a.u.
2'F-ANA at 2 9 12 14 15: 173 a.u.
2'F-ANA at 1 3 7 8 13 15: 304 a.u.
2'F-ANA at 2 3 4 5 7 8 9 11 12 13: 129 a.u.
2'F-ANA at 2 5 7 11 12 13 15: 99 a.u.
2'F-ANA at 2 9: 497 a.u.
2'F-ANA at 3 4 7 8 9 11 12 14 15: 345 a.u.
2'F-ANA at 1 2 4 8 9 10 11 12 14 15: 52.8 a.u.
2'F-ANA at 4 5 7 9 10 11 13 14 15: 53 a.u.
2'F-ANA at 1 2 5 6 7 8 11: 53.4 a.u.
2'F-ANA at 2 6 10 12 13 15: 148 a.u.
2'F-ANA at 5 7 8 10 11 12 14: 45.6 a.u.
2'F-ANA at 2 4 7 9 10 12 13 14 15: 125 a.u.
2'F-ANA at 3 4 6 12 15: 841 a.u.
2'F-ANA at 2 5 6 7 8 15: 77.9 a.u.
2'F-ANA at 3 4 9 10 12 13 15: 284 a.u.
2'F-ANA at 4 5 8 9 10 11 12 14: 45.3 a.u.
2'F-ANA at 3 5 6 8 10 11 13 14 15: 57.3 a.u.
2'F-ANA at 1 2 4 5 6 7 8 9 11 12 13 14: 54.6 a.u.
2'F-ANA at 1 3 4 7 8 9 12 15: 489 a.u.

Study 2
Target: RNA binding protein fox-1 homolog 2, RRM domain, GST-SBP tag (RBFOX2, Homo sapiens, UniProt O43251-10, residues 100-194)
Technique: RNA Bind-n-Seq
Molecule type: RNA
Sample: in vitro
Tested at: 365 nM
Setting: natural RNA segment, single round, ends assumed
Baseline: no-protein control
Reading: higher = stronger binding
Measurement: RBNS enrichment (R)
Target sequence (chain): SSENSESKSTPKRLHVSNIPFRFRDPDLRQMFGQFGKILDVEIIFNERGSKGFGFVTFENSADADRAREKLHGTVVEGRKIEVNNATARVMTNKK
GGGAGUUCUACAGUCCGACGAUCAUGUCCCCAACUCAAGGCUAGAAAACAGCAAGAUGGAGAAAUAAUGUUCUGCUGCGUCCCCACCGUGACCUGCCUGGCCUCCCCUGUCUCAGGGAGCAGGUCACAGGUCAUGGAAUUCUCGGGUGCCAA: 0.207
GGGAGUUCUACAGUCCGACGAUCGCGGGGGAAUGCAGCCAGUGUCCCCCUCCCCUCUUCCACCCCAGCUCCAGCCCUGGUCUUGUCUUUUCAUCCCUCUUCCCCACGACAGAAGAAGUUGUGGCCCUGGCCAUUGGAAUUCUCGGGUGCCAA: 0.36
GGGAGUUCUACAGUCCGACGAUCAAUAUCAUAUAUCAUCAGUUAGCAAUAUUAGCAUUUCAAUCAGUGAUUUGAAUGUUGAUACUUUUUUUUCCUUUACAUUUCCAGUAAGUUUCUUACAGAAAGUACCUGUGUGGAAUUCUCGGGUGCCAA: 0.637
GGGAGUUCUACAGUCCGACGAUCUGUUCAUCUGCUGCUGUUUACAUUCUGGGGGGUUAGGGGGAGUCCCCCUCCCUCCCUUUCCCCCCCAAGCACAGAGGGGAGAGGGGCCAGGGAAGUGGAUGUCUCCUCCCUGGAAUUCUCGGGUGCCAA: 0.372
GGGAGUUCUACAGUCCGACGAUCGUCCUGUCCCCUGUAGCUGCUUUCUUAGAUGGAAACAGGCUAACGAAGAGAGGGACACUGUCGUGUCAGUAGCCGCAGGGUCCCCUUUAAGAUGUGUAUAUCGACACUAGUGGAAUUCUCGGGUGCCAA: 0.343
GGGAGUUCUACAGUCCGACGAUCAAAGAUGAGAAUCUGGUGUUUCUGUACUUUAUUAUUUUCAAUAAAACUCAAUGUUUUGAACUUUUAAGUAUCUGUAAUCCUGUAUAAAUGUAAAUUAAGCAUUUUUUCCUUGGAAUUCUCGGGUGCCAA: 0.745
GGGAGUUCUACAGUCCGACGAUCAGGAUCUGAGAGGAGAGGGUCCUUGCUCCAUGCAUGAGGACAUCCAUCCCACCCACUGCCUCUGAAGAGCUGUAGAGCAACCUGCUUUUGGCAUGGGUGGAUGGAUUUUUUGGAAUUCUCGGGUGCCAA: 16.5
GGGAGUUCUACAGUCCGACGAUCCAAACCACCCCAUCCUCACAGCGAGCUUAUCCCUACCUCUGCGUGACACUGAGCAGGCAGAUUAGCAAUCUCCCAGGUCAUGCAGCAUCUUGAAACAAAGUAAGAAUUCUUGGAAUUCUCGGGUGCCAA: 0.734
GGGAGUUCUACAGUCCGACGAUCUAAUAUCUUUUCUCUUUUAACAUUGAAGAAAUGGGAAAUUUCAUUAAUGACAUUGUUGUUGAUAAAUCUUUUUGCCUAAAAACUAGAAUAAAAUUGCAGUUGUUUCAGUGUGGAAUUCUCGGGUGCCAA: 0.399
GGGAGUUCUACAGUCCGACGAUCAGCCUGGGUGCCAGGCAGCGGGCAAUAGGCAGGGAUGCCACUGCCUCCAAAAGACUCCUUGCAUUAGGUGAUCCAGGAGCCCUGUCACUAAGCCCCUGCCCCUGAGCUCCUGGAAUUCUCGGGUGCCAA: 1.5
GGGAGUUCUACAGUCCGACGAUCCCCACUUUGAAAUCUCACAGAAUCUUGCUGGUAAUGGUGACUUUAGAACUAGUAGACCCUUUUUCCCAGGCACUGACCCCCCACCUUUGUCUGUGUUGUGCCCAAGUGCCUGGAAUUCUCGGGUGCCAA: 0.361
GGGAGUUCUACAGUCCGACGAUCUGGGGGGUGGGGCUUGUUCCCCUGCAGUAUCUGUUCUGUGAAGUUUGUUAAAUGUAAGGAAAGCUUAAAUUCUUGUAUCUUUAAAAGAGAAAAUCUUAUUUAACCCUUUUUGGAAUUCUCGGGUGCCAA: 1.35

Study 3
Target: Fragile X messenger ribonucleoprotein 1, C-terminal low-complexity region (Fmr1, Mus musculus, UniProt P35922)
Technique: RNA Bind-n-Seq
Molecule type: RNA
Sample: in vitro
Tested at: 200 nM
Setting: whole 134-nt RNA, ends assumed
Added: 150 mM LiCl
Baseline: input library
Reading: higher = stronger binding
Measurement: log2 enrichment
Library: 7-deaza-guanosine replaces G
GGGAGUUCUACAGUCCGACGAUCGCAGGAAGUAAAAACAAAUGGAAAUGCUUCGGAUAGUGGCAGGGGUGGGGGUUGCUAAGGAAAGGGUGGGAUGGGAAAAGGUAAAGAGUUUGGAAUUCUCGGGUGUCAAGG: 1.43
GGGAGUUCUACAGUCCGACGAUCCACAGACAACACGCACCCACACAGACACAGAGGGAAGGGGUUGGGAUGGGGACAAAGUGCACAGCAGGGCGGGGUAGGACCCCAGCCCCUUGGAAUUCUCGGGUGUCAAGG: 0.217
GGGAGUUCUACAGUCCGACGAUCACCAUGCAGGUGGGCAUCUUUGGGAAGUGGGGCAAGGGGGGGAUAGGGAGGGGGGUAACACUUUGAGAACAGGUGGUCCCAGGUCGUUUCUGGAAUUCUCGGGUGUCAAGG: 1.33
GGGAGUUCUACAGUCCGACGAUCUAACUUUAGAGGAGGAUCUGAUGGAUAUGGCAGUGGACGUGGAUUUGGGGAUGGCUAUAGUGGGUAUGGAGGAGGACCUGGAGGUGGCAAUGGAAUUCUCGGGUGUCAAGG: 0.345
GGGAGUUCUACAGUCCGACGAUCUCAAGUCCUGUGCUACACAUCGUAUGUACCGAAUCGGUUUGGUUUUUGGUUUGGAAAGUAUUAUGUUACGCCGUUCGGAUCUGCACUUCCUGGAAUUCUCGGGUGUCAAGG: -1.45
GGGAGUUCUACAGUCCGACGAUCACCAUGCAGGUGGGCAUCUUUGGGAAGUGGGGCAAGGGGCGGAUAGGGAGGGGGGUAACACUUUGGGAACAGGUGGUCCCAGGUCGUUUCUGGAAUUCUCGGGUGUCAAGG: 0.96
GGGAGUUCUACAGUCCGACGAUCGCAGGAAGUAAAAACAAAUGGAAAUGCUUCGGAUAGUGGCAGGGGUAAAGGUUGCUAAGGAAAGGGUGGGAUGGGAGUGGGUAAAGAGUUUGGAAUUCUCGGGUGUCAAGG: 1.76
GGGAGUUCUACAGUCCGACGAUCCCUGUGCUACACAUCGUAUGUACCGAAUCGGAAAAAAAGGGGAAAAAAAGGGAAAAAAAGGAAAGUAUUAUGUUACGCCGUUCGGAUCUGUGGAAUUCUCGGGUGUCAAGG: -0.101
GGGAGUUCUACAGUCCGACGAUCUCCUGUGCUACACAUCGUAUGUACCGAAUCGGGGUUUGGGGUUUUUUUGGGGUUUGGGGAAAGUAUUAUGUUACGCCGUUCGGAUCUGCAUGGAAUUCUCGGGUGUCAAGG: -0.235
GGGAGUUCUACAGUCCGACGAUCUGGGAGGUGGAUUUUUUUUAUUUUUUUAGCUCAUUUCCAGGGGUGGGAAUUUUUUUUUAAUAUGUGUCAUGAAUAAAGUUGUUUUUGAAAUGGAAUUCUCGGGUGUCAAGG: 0.65
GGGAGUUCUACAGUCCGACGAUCUGGGAGGUGGAUUUUGUUUAUUUUUUUAGCUCAUUUCCAGGGGUGGGAAUUUUUUUUUAAUAUGUCUCAUGAAUAAAGUUGUUUUUGAAAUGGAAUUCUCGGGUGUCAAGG: -0.656

Study 4
Target: Histone acetyltransferase KAT6A, winged helix 2, GST fusion (KAT6A, Homo sapiens, UniProt Q92794, residues 85-181)
Technique: protein binding microarray
Molecule type: double-stranded DNA, one strand shown
Sample: in vitro
Tested at: not given
Setting: 8-mer, flanks averaged, mean of 2 arrays, mostly near background
Baseline: not given
Reading: higher = stronger binding
Measurement: E-score
Residues (chain): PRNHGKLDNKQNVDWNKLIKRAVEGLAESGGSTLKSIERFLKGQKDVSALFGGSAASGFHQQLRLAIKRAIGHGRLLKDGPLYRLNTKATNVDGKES
AACTAAAT: -0.213
ACGCTTCC: 0.0775
CGCACATC: 0.0696
GGTTGTAC: 0.113
AGTATGTG: -0.0866
ATTGGGAG: -0.0955
TGGAAGAA: 0.168
AATTCTGG: 0.017
CCTTTGAC: -0.219
GGGTCAAA: 0.141
CCTGCTTA: -0.0244
CGCGCGTA: 0.164
GAAGGTTA: 0.0035
AGACCGTC: -0.169
ATCGCCGC: 0.108
AAGGCCAG: 0.0907
ACTTTAGA: -0.129
ACTGCAGC: -0.0839
CTCGTTTC: 0.0918
TCAGTCGA: -0.066
CAATGTGG: -0.17
TACGCGTA: -0.0492
CACCAGCA: 0.0159
AATCTATA: 0.0608
ACCGGTGG: -0.0423

A few entries again (study 4):
ATCGCCGC: 0.108
AAGGCCAG: 0.0907
ACTTTAGA: -0.129
ACTGCAGC: -0.0839
CTCGTTTC: 0.0918
TCAGTCGA: -0.066
CAATGTGG: -0.17
